Published values collected from several papers.
Every numbered part comes from another study and shows a few of its results, in no order.
Chain of UniProt Q92985 (whole entry, unmodified, looked up): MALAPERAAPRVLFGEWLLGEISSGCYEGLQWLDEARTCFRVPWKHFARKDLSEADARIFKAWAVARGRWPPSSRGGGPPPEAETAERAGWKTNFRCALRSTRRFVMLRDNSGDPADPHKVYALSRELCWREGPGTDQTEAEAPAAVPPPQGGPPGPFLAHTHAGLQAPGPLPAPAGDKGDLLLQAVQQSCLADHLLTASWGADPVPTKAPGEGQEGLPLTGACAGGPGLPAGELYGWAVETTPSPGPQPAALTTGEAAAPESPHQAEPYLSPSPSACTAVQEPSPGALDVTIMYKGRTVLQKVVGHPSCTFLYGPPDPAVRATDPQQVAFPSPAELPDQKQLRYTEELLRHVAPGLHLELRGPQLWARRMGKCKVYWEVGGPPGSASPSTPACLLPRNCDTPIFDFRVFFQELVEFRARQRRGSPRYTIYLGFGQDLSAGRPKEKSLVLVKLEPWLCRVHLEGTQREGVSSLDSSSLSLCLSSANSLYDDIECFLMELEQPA
Chain of UniProt Q14653 (whole entry, unmodified, looked up): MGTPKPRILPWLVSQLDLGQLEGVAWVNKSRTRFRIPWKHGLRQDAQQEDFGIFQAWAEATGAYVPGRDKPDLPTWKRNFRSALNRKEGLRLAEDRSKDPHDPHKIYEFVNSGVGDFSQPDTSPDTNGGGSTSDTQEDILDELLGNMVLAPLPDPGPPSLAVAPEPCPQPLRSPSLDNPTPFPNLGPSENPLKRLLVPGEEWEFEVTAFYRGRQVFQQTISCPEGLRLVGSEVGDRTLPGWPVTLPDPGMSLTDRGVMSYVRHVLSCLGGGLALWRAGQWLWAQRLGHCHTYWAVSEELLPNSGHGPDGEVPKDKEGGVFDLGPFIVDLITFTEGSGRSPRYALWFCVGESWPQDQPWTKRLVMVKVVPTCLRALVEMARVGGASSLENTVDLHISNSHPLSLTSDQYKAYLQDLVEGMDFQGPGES

Sample 1
Target: Sal-like protein 4, full length isoform A (SALL4, Homo sapiens, UniProt Q9UJQ4, residues 1-1053)
Chain of UniProt Q9UJQ4 (whole entry, looked up): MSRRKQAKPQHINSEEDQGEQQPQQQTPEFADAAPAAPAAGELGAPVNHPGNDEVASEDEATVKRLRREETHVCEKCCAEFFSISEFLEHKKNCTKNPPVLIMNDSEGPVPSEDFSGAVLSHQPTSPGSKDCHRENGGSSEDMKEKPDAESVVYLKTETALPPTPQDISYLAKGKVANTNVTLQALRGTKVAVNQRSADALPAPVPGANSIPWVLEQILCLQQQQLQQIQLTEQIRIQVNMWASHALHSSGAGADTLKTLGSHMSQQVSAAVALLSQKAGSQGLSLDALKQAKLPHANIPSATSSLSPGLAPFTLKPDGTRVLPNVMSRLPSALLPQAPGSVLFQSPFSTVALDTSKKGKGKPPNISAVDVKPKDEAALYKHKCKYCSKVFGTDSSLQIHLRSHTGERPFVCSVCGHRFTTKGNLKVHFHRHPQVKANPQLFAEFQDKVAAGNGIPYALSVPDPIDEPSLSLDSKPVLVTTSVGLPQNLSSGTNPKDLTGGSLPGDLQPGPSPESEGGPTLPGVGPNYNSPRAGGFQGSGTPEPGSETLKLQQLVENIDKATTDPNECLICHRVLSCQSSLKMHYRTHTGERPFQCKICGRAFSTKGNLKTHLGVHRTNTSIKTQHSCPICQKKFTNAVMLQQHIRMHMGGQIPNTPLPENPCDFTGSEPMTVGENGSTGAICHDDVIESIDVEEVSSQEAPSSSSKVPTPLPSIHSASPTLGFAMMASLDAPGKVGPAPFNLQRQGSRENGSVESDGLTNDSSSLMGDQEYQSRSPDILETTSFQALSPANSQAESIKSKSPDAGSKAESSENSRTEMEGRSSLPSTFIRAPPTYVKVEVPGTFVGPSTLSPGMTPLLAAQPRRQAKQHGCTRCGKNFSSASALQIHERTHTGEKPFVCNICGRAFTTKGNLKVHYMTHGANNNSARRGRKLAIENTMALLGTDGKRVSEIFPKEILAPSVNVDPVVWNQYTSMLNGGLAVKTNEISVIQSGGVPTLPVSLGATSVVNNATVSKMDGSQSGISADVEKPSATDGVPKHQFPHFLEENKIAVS
Technique: universal PBM
Form: double-stranded DNA, one strand shown
Matrix: in vitro
Concentration: 600 nM
Setting: 8-mer, flanks averaged, mean of replicates
Reading: higher = stronger binding
Oligonucleotide	E-score
AAAAGATT	0.18
GTGGCTGA	-0.199
CTCGATAC	0.201

Other studies, line by line
Molecule	target	test	test system	conditions	how to read	endpoint	value
GCCTAGCACGACGGTATCGACTTTCGGTACGTGCTAGTCTTGATTCGCTTGACGCTGCTG	Interferon regulatory factor 7, full length, phosphomimetic (IRF7, Homo sapiens, UniProt Q92985, residues 1-503, S101K/S471D/S472D/S475D/S476D/S477D/S483D/S484D/S487D)	protein-binding microarray	double-stranded DNA, one strand shown, in vitro	250 nM, 60-bp whole probe, together with: salmon DNA 0.4 mg/ml	baseline: random background probes, higher = stronger binding	log fluorescence	1.9 z-score
CCCTGCAG	Histone acetyltransferase KAT6A, winged helix 1, GST fusion (KAT6A, Homo sapiens, UniProt Q92794, residues 1-85)	protein binding microarray	double-stranded DNA, one strand shown, in vitro	not given, 8-mer, flanks averaged, mean of 2 arrays, mostly near background	baseline: not given, higher = stronger binding	E-score	-0.00366
PhoQ, residues 284 288 289 292 302 303 TASMAF	PhoP, residues 12 14 15 18 19 SPWRL (Escherichia coli, UniProt P23836)	Sort-seq, item: YFP reporter	E. coli	PhoQ-PhoP variant library, together with: 10 µM Mg2+	baseline: high Mg2+ state, higher = stronger signaling	fold induction	2.94
GCCTAGCACTAGTTTTACTTTCTATGTCTGTGCTAGGTCTTGATTCGCTTGACGCTGCTG	Interferon regulatory factor 3, full length, phosphomimetic (IRF3, Homo sapiens, UniProt Q14653, residues 1-427, S386D/S396D/S398D/S402D/T404D/S405D)	protein-binding microarray	double-stranded DNA, one strand shown, in vitro	2540 nM top, 60-bp whole probe, together with: salmon DNA 0.4 mg/ml	baseline: random background probes, higher = stronger binding	fitted relative affinity	5.31 z-score
ATGCAGGC	Histone acetyltransferase KAT6A, winged helix 2, GST fusion (KAT6A, Homo sapiens, UniProt Q92794, residues 85-181)	protein binding microarray	double-stranded DNA, one strand shown, in vitro	not given, 8-mer, flanks averaged, mean of 2 arrays, mostly near background	baseline: not given, higher = stronger binding	E-score	0.0367
